Measured values gathered from unrelated publications.
Parts stem from different laboratories: compare values within a part only. Changes are numbered by the printed parent chain.

Block 1
Target: CCNB3, cyclin fold, Cln2 fusion (human)
Method: yeast growth competition, sequencing
Medium: yeast
Setting: weak parent motif
Baseline: not given
Direction: higher = stronger binding
Parent: HASPIN docking peptide (human); ASLRSVLFGLMNS; partner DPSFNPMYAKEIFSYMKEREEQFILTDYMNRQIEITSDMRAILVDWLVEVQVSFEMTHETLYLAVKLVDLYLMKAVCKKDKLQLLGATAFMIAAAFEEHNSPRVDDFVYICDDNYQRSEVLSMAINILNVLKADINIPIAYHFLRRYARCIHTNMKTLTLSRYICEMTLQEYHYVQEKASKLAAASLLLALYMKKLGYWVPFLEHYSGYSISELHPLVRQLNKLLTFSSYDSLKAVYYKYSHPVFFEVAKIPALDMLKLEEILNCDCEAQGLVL
Change	normalised enrichment score
ASLRAVLFGLMNS [S5A]	0.47
AALRSVLFGLMNS [S2A]	-0.364
ASARSVLFGLMNS [L3A]	0.417
ASLRSVLAGLMNS [F8A]	0.0991
ASLASVLFGLMNS [R4A]	-0.347
ASLRSALFGLMNS [V6A]	0.343

Block 2
Target: Protein C-ets-1 (ETS1, Homo sapiens, UniProt P14921, residues 1-441, Y397A, full length assumed)
Chain of UniProt P14921 (whole entry, unmodified, looked up): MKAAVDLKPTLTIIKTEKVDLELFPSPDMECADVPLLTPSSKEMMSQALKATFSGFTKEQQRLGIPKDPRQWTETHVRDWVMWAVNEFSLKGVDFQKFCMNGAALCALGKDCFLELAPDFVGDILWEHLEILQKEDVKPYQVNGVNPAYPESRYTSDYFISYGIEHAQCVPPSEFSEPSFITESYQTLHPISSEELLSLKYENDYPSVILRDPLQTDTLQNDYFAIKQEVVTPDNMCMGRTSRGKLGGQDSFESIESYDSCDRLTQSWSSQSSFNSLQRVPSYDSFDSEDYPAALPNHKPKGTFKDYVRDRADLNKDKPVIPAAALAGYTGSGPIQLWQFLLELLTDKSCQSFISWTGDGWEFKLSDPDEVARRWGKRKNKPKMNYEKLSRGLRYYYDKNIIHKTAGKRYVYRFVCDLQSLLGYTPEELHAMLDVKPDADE
Method: protein-binding microarray
Molecule type: double-stranded DNA, one strand shown
Medium: in vitro
Concentration: not given
Setting: k-mer, scored over probes, only values ≥0.25
Direction: higher = stronger binding
Strand	E-score
CAAACGAC	0.26
GAACGACA	0.29
TACGACAA	0.351
GGCAAAAC	0.317
GTGATCAC	0.262
TCCGACAA	0.426
ACGGGATA	0.289
AAGTGTAC	0.26
GCGCGCGC	0.323
CTGCCAAA	0.33
GGAAGTTA	0.314

Block 3
Target: Sal-like protein 4, full length isoform A (SALL4, Homo sapiens, UniProt Q9UJQ4, residues 1-1053)
Chain of UniProt Q9UJQ4 (whole entry, looked up): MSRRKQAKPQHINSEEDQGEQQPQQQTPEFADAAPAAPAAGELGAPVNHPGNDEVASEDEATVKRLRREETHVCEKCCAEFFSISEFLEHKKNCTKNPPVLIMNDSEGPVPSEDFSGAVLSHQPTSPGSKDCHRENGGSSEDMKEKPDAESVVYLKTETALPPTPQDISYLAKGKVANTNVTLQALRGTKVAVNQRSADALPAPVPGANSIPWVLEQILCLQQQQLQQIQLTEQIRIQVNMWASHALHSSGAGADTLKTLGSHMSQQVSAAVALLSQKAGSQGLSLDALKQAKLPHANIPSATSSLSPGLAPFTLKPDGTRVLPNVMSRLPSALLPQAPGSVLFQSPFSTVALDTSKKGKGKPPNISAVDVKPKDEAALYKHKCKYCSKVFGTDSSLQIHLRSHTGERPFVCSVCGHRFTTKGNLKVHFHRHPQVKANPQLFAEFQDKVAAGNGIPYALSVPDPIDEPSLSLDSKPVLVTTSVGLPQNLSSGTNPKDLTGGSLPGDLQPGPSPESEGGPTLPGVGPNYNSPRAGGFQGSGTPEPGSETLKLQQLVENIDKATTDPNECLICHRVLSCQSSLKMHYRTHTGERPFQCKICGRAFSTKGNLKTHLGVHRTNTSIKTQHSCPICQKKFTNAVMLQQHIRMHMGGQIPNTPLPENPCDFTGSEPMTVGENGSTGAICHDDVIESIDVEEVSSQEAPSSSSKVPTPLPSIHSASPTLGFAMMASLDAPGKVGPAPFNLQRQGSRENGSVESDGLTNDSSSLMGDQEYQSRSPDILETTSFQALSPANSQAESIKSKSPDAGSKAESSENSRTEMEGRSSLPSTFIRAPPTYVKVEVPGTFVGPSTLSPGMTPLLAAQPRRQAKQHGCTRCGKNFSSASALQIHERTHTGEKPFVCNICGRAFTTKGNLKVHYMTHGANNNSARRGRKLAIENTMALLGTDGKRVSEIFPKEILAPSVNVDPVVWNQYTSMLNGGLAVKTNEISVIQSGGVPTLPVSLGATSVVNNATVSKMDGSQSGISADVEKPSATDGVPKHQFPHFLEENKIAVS
Method: universal PBM
Molecule type: double-stranded DNA, one strand shown
Medium: in vitro
Concentration: 600 nM
Setting: 8-mer, flanks averaged, mean of replicates
Direction: higher = stronger binding
Strand	E-score
AATCGACT	0.0114
ACTAATAA	0.347
AGATGGAT	-0.101
GGGAGTCA	-0.195
CAGACGCA	-0.17
AAGGTTAA	0.157
CGGGATAA	-0.0043
AGTGTAGG	0.105
CGGTATAC	-0.117
CCTCTATC	-0.0609
ACGTACAG	0.0294
GATAGAAA	0.109
ACTCCGAT	-0.0316
CAATCCTA	0.0542

Block 4
Target: Interferon regulatory factor 7, full length, phosphomimetic (IRF7, Homo sapiens, UniProt Q92985, residues 1-503, S101K/S471D/S472D/S475D/S476D/S477D/S483D/S484D/S487D)
Chain of UniProt Q92985 (whole entry, unmodified, looked up): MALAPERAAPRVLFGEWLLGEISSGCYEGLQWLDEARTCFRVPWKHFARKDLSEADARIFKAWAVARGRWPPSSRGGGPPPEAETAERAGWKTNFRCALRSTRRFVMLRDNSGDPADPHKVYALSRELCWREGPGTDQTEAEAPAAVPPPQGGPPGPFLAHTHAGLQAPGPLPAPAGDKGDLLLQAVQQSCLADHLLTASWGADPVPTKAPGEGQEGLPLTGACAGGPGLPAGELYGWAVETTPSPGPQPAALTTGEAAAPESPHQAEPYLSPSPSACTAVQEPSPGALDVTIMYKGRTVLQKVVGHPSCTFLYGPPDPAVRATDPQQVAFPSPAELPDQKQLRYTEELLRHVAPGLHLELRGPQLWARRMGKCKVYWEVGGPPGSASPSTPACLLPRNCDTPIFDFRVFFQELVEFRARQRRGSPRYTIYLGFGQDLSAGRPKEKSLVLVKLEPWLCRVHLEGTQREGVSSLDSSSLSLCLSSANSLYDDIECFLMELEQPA
Method: protein-binding microarray
Molecule type: double-stranded DNA, one strand shown
Medium: in vitro
Concentration: 250 nM
Setting: 60-bp whole probe
Together with: salmon DNA 0.4 mg/ml
Baseline: random background probes
Direction: higher = stronger binding
Shared flanks, not repeated: GCCTAGCAC … GTCTTGATTCGCTTGACGCTGCTG
Strand	log fluorescence [z-score]
TCATATTTAAGGCTAGGACTGTGCTAG	0.498
TGTGTTTTCACTTTTCCTACGTGCTAG	2.8
TTAGATATCAGTCTCGAATAGTGCTAG	0.481
GACGGTATCGAATATCGGGACGTGCTA	-0.0889
ATTTTTTTCTAAGTAAACCCGTGCTAG	0.858
TCACTCTTGCTTTTTAGACTGTGCTAG	0.429
GACGGTTTCAGACTGGGGACGTGCTAG	0.614
GACGAAATGAGTATCGAGACGTGCTAG	0.396
GACGGTCTCCTCCTGCTGACGTGCTAG	0.126
GACGATCTCAGTCTCGACACGTGCTAG	0.187
GACGGTATCGGGACTGGGGAAGTGCTA	-0.177
TCAGCTCTGATGTTGGGACTGTGCTAG	-0.485
TACCCTTTGAAAGTTGTTTTAGTGCTA	0.163
TCAGGCTTAGTTTGTCAAACTGTGCTA	-0.386
TTAGGTTTCCTTATCCTTAAGTGCTAG	3.57

Block 5
Target: RING finger protein unkempt homolog, zinc fingers 1-6, GST-SBP tag (UNK, Homo sapiens, UniProt Q9C0B0, residues 30-357)
Chain of UniProt Q9C0B0 (30-357, looked up): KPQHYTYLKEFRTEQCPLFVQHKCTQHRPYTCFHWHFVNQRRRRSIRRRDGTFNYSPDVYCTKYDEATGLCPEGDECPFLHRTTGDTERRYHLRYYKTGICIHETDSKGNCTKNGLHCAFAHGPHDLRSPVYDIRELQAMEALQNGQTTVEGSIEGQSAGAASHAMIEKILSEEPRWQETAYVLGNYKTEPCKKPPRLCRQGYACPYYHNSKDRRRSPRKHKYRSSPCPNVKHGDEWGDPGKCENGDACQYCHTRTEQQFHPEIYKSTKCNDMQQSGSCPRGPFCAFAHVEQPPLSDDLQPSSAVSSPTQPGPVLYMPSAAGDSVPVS
Method: RNA Bind-n-Seq
Molecule type: RNA
Medium: in vitro
Concentration: not given
Setting: RNA with constant flanks, human and mouse sites, ends assumed
Baseline: input RNA pool
Direction: higher = stronger binding
Shared flanks, not repeated: GGGAGUUCUACAGUCCGACGAUC … CAACAGAGGAUUGAGCAUCA
Strand	bound/input enrichment
GUAUGCCAAGGAACUCACAUUCUCUUCCGGGAAUUCAGCUUUAUACAAGCCACACCUCAUAAUAGAGCAUCAUUCCUUCGGGCCUUCUGGAGAUGCUUCCGAACUGUAGGGAAAAAUGGU	0.412 ratio
GGAUUCAGGAAAAUGGCUCUCUUAUCACCAUCCUGGUCAUUGCUGGUGUCUUCUGGAUCCACCGGCUUAUCAAGUUUAUCUAUAACAUUUGCUGCUAUUGGGAGAUCCACUCCUUCUACC	0.634 ratio
GGGUGGGGGUUGUCAUUGCCAAUUGAGCUGCUGAUUCUUAUGAAUCACAUUCAGAACUCGCAUAGGGUUGACACUGUAAGGGGUGGGGAAAUCUAGCUAUUUUUUUUUCCCCAGCCCAUU	3.96 ratio
UUGGAACAGGCUGAUGAAGACUUAGCUACCGGCUUGGCAUUGAUUGACCUGGGUCAGAGUAUAGAUAUGAAACUUUUCCCUAAAGGAACUGUAUUUACAGGAAAAUGUGAAACAUCUGGU	0.134 ratio
CUGAAUGAUUUUGGCUUCAUGAUCUUUCACUCACCAUAUUGUAAACUGGUGCAGAAAUCUCUAGCUCGGAUGUUCCUGAAUGACUUUCUUAAUGAUCAAAACAGAGAUAAAAACAGUAUU	0.205 ratio
AUUUAGAAUGUUAAUAAAUUGCUCUGAGUUUCCUCAAGUCCAUUUUGUAAGAUCAGACCAUAGGUGGGUGUUGUUUCUUUUAAGUGUGUGUACUGUGUCCAAUGUUACAUUUUUAGAAGU	29.9 ratio
AGUGGAUUUUGUAGCUAUUUAGAAUCCCAGGACUCUGGAUAUCUAUAUUUUUGCUUCAGAUGGCUUUUAAUCAGAUUUAAAAGGGAAUUUAGUUUUCUAGAUAUACUUCGAUUAUGGGAG	0.811 ratio

Block 6
Target: Histone acetyltransferase KAT6A, both winged helices, GST fusion (KAT6A, Homo sapiens, UniProt Q92794, residues 1-181)
Method: protein binding microarray
Molecule type: double-stranded DNA, one strand shown
Medium: in vitro
Concentration: not given
Setting: 8-mer, flanks averaged, mean of 2 arrays, mostly near background
Baseline: not given
Direction: higher = stronger binding
Residues (chain): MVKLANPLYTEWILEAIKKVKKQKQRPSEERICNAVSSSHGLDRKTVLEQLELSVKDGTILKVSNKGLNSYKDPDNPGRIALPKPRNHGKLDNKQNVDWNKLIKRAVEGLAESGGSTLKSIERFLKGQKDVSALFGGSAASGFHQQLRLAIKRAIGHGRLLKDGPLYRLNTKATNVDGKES
Strand	E-score
CACTCGAA	-0.203
GATGAACC	-0.0131
ACGACAAG	-0.00225
ATTGCGAA	0.0973
ATCACGCG	0.228
ACATCCAG	-0.0456
ATGAGCCG	0.0985
ACTACCCG	0.206
GTCGTCCA	0.0101
AAATGACA	-0.193

Repeated from above (block 2):
Strand	E-score
CAAACGAC	0.26
GAACGACA	0.29
TACGACAA	0.351
GGCAAAAC	0.317
GTGATCAC	0.262
TCCGACAA	0.426
ACGGGATA	0.289
AAGTGTAC	0.26
GCGCGCGC	0.323
CTGCCAAA	0.33
